Measurements of several laboratories.
Every numbered part comes from another study and shows a few of its results, in no order. Substitutions count along the parent as printed.
UniProt P51813, sequence (whole entry, looked up): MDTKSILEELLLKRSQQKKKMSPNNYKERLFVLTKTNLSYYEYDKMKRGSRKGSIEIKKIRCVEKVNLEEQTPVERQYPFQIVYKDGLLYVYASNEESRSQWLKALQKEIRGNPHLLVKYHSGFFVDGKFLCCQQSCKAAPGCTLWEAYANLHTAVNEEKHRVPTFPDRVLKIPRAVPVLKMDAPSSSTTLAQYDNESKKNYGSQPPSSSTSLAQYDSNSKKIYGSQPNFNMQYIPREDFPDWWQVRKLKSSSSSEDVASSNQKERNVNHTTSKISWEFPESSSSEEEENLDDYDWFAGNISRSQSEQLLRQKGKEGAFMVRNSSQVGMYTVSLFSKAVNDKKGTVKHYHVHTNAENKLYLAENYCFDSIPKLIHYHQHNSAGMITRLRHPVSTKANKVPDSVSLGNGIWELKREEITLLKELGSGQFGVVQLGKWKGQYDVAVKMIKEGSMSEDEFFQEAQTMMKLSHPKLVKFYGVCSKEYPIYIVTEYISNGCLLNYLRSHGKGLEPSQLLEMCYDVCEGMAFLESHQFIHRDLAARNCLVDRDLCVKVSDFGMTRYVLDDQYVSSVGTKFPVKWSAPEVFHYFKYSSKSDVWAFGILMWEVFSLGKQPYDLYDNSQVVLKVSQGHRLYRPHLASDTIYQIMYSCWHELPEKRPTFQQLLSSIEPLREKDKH

Block 1
Target: ABI1, truncated, D143A, DHFR fusion (Arabidopsis thaliana)
Method: DHFR PCA, deep sequencing
Medium: yeast
Notes: methotrexate growth selection, single substitutions
Added: (+)-ABA 0.11 µM
Baseline: wild-type fitted maximum
Direction: higher = stronger binding
Starting sequence: PYL1, truncated, DHFR fusion (Arabidopsis thaliana); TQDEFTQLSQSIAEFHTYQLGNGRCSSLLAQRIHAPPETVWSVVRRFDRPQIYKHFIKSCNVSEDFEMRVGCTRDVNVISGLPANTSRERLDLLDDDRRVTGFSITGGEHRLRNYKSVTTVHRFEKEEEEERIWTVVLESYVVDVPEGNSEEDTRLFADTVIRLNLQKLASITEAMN; partner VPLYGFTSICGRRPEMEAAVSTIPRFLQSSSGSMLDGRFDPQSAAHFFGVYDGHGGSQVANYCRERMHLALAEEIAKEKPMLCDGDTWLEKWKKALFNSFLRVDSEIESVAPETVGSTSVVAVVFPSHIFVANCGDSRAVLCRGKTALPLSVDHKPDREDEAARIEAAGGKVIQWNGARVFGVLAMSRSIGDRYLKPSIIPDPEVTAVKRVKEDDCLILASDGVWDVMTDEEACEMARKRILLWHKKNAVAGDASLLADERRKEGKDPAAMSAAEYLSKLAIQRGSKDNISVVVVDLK
Change	relative binding score [%]
A30C	16.5
Y53P	-8.23
R123H	44.1
S87I	55.7
E14A	8.88
W134G	23.8
E38D	31.4
C72S	33

Block 2
Target: RING finger protein unkempt homolog, zinc fingers 1-6, GST-SBP tag (UNK, Homo sapiens, UniProt Q9C0B0, residues 30-357)
UniProt Q9C0B0, sequence (30-357, looked up): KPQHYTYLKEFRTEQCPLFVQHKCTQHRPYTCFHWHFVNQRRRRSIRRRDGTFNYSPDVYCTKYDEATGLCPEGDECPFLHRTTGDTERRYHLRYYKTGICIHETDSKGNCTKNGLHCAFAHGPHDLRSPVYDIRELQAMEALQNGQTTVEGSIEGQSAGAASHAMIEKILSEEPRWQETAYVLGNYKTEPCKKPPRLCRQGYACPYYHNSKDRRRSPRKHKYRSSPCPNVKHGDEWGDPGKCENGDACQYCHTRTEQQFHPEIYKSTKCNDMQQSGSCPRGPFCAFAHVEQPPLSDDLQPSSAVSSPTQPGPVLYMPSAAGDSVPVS
Method: RNA Bind-n-Seq
Form: RNA
Medium: in vitro
Tested at: not given
Notes: RNA with constant flanks, human-mouse chimeric sites, ends assumed
Baseline: input RNA pool
Direction: higher = stronger binding
Shared flanks, not repeated: GGGAGUUCUACAGUCCGACGAUC … CAACAGAGGAUUGAGCAUCA
Oligonucleotide	bound/input enrichment
AGAGAAAUGAGAAAGAAUCUUACACAAGAAGAGAUGCAAAGAAUGUCUACUAGAGUCCUUUUAGCCACUCUUUCCAUUCCUAUUACUCCUGAGCGAACUGAUAUUGCUCGACUUCUGGAU	0.353 ratio
CCCCAAUUACCAUCUGUGGUCUGGAACCUGCAUUCUUUUUUUAAAAAACAUGUAUACAUUUUAGGGCUGUAGAUUUAUUUUCCUGGUUUUGUUUUUCAUUGCUGACUUUUGAGCACAGAA	0.565 ratio
UCAGUCUUUUUGUACAGCUUUGUAAAUUCUUAACAUUAAUUUGUAAACAUGUUUAUUUUGUUUGGGUAAUUUGGUUCAUUAAGUACAUAGCUAAGGUAAUGAACAUCUUUUUCAGUAAUU	0.347 ratio
GAAUCCUCCCGUGCAAAAUUUUGCAACACCAAGCUCACAGCAGCAGCAUCUUAGUCACAGUUAGGUAGUUUUGGGGCUCUGUGGCCAGGGUUUUAUUCACAUGCAGGUUUGGAAAAUGUA	3.88 ratio
AAAGAGAAAGCUAAAACACUAAUAGAGGAAGAGGAUUGCAAAGAGAAUUUCAUAGAGAAACUAGGAUUUAUUAGCAAACAUGAGUUAUAUUCCAGAGCGUCUCAGAAACCCCAGCCAAAC	6.38 ratio
CUUAUGGCUGCAGAAACAGGAAGUGGAAAAACUGGUGCUUUUAGUAUUCCCGUUAUCCAGAUAGUGUAUGAAACUCUGAAAGACCAACAGGAAGGAAAGAAAGGGAAAACAACUAUUAAA	0.722 ratio
UUGCCUGAGAACGAGGAUGAAUUGGAGAGCACCAACAGGCGCUACACCAAGAGGGACUGCAGCACUUUCCUCAGAACUAGUGAGACGGGCAUCGUGGACCAGGUCAUGGUCACUCUCAAC	0.181 ratio
UAAGUUAAGCUUUUAAUCUUUGUAAAUUCUUAACAUUUUUAUAUUGCCAUGUUUAUUUUGUUUGGGUAAUUUGGUUCAUUAAGUACAAAACCAAAUAAAUGAACAUCUUUUUCAGUAAUU	0.772 ratio

Mixed results
SMILES	tested on	test	conditions	scale	measurement	value
CS(=O)(=O)CCNCc1ccc(-c2ccc3ncnc(Nc4ccc(OCc5cccc(F)c5)c(Cl)c4)c3c2)o1	Cytoplasmic tyrosine-protein kinase BMX (BMX, Homo sapiens, UniProt P51813)	enzyme activity, inhibitor	0.5 µM	baseline: control	remaining activity	105%
Cn1cncc1[C@@](O)(COc1ccc(C#N)cc1-c1ccc(OC(F)(F)F)cc1)c1ccc(C#N)cc1	HEK293T	high-content imaging	10 µM, 24 h, 1 normal, negative death, unit not given	baseline: untreated growth	GR value	-0.0147
